Results collected from several papers.
Parts stem from different laboratories: compare values within a part only.
Chain of UniProt P10721 (whole entry, unmodified, looked up): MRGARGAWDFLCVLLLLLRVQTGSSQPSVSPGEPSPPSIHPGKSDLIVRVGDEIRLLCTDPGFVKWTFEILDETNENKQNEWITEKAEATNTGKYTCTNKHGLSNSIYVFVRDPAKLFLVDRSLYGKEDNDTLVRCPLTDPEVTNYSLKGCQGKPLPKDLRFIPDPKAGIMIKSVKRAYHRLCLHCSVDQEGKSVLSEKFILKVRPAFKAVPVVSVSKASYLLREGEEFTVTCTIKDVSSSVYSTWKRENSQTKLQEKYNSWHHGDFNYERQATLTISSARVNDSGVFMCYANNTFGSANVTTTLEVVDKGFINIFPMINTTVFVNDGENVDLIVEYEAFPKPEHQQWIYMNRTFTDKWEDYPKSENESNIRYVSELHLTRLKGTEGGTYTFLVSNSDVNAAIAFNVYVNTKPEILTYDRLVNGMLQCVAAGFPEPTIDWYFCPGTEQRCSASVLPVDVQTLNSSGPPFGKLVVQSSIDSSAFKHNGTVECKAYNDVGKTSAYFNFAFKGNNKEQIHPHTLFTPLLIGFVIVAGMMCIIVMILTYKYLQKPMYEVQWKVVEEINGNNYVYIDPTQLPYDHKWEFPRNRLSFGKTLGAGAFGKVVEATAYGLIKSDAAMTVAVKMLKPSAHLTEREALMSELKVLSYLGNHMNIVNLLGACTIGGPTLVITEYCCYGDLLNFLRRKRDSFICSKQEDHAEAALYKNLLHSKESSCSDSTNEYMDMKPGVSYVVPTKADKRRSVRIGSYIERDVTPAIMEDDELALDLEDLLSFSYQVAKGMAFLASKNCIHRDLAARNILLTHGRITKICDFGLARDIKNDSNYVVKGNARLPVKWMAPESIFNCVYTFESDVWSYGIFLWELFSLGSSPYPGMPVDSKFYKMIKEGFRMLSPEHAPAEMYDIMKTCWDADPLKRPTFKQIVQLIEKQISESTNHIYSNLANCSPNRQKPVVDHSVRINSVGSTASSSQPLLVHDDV
Chain of UniProt Q6ZWH5 (whole entry, looked up): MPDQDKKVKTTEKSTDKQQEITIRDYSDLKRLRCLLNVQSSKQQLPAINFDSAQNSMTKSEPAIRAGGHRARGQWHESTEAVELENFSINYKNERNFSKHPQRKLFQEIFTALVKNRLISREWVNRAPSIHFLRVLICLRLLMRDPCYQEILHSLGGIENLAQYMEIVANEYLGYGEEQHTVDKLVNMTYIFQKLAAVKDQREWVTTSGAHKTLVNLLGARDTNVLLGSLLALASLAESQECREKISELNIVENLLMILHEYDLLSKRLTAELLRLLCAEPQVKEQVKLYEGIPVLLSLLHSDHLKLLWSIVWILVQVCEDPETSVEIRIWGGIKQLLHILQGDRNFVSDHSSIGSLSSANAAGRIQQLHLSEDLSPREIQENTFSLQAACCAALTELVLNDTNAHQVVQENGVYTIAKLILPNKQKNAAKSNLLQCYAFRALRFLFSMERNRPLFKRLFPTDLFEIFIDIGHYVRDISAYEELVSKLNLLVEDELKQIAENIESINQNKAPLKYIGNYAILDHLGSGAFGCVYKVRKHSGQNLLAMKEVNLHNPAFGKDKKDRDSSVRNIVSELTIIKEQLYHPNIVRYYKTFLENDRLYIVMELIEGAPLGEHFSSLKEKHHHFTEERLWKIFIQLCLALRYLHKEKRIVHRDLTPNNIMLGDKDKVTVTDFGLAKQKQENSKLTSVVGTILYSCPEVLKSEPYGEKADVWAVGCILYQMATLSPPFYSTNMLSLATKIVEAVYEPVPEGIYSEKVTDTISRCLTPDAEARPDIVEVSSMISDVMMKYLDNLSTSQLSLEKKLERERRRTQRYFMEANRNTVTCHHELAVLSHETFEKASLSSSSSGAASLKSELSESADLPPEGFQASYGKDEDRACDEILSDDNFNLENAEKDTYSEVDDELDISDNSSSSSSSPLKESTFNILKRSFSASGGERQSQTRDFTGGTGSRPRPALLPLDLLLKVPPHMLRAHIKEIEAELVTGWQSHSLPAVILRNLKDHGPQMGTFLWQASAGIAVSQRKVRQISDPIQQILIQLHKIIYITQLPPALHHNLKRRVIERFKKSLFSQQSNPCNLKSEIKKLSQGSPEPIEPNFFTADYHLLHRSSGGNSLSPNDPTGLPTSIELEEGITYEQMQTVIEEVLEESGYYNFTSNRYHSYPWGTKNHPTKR
Chain of UniProt Q13546 (whole entry, looked up): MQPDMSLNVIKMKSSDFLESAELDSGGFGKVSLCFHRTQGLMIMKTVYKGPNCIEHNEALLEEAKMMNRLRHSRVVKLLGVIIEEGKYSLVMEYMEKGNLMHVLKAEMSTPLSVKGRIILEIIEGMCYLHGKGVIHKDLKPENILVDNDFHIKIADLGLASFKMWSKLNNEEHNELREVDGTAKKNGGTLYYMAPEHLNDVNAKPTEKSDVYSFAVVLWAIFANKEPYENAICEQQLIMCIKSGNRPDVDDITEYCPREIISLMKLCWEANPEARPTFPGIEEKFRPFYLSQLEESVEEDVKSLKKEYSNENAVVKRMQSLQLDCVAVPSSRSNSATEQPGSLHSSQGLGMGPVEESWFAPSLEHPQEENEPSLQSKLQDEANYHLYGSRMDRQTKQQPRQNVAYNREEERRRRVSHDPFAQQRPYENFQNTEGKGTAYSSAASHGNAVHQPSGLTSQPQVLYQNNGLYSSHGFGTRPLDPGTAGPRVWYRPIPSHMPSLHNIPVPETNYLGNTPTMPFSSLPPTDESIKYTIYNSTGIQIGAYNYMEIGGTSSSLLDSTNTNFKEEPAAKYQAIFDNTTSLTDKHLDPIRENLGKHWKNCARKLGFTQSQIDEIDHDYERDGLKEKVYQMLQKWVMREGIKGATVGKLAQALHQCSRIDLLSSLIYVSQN
Chain of UniProt Q13043 (whole entry, looked up): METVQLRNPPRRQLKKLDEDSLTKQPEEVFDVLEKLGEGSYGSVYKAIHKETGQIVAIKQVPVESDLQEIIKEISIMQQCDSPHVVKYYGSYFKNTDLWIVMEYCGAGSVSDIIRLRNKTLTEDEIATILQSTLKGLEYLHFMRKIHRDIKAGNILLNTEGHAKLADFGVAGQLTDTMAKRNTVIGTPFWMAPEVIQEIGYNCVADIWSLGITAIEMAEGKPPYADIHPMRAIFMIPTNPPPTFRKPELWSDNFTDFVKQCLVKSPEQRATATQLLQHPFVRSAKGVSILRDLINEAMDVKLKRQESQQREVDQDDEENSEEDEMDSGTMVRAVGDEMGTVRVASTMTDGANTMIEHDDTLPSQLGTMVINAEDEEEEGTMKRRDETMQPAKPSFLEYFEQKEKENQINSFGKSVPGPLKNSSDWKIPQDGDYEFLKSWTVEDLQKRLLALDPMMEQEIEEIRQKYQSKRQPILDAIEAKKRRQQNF
Chain of UniProt Q96BR1 (whole entry, looked up): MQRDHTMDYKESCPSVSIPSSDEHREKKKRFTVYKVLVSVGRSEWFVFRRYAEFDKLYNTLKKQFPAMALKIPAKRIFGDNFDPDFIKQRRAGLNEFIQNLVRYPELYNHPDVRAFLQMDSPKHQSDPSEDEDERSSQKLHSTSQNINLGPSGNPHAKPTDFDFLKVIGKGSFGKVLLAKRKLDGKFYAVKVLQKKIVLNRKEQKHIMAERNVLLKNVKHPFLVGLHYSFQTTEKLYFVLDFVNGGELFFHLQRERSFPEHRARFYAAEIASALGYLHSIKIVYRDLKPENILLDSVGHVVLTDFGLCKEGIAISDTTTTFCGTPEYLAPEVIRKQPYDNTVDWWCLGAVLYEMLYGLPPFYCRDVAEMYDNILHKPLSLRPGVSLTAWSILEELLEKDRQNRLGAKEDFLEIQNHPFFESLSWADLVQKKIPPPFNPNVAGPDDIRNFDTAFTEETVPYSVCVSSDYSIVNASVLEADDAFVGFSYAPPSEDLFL
Chain of UniProt O14733 (whole entry, looked up): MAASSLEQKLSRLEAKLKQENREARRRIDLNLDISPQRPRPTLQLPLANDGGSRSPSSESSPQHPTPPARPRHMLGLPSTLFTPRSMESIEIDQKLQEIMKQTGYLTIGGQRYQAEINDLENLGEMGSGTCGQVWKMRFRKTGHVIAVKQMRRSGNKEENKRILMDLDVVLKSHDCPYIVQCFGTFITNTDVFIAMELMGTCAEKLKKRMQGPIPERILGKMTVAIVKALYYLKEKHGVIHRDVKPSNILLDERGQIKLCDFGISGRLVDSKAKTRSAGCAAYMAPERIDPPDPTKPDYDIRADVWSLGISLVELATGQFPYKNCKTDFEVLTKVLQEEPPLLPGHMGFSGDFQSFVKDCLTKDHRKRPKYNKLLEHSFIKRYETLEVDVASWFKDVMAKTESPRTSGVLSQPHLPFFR

Series 1
Target: Prothrombin, mature alpha-thrombin (F2, Homo sapiens, UniProt P00734)
Technique: aptamer microarray, sandwich
Form: DNA with 2'F-ANA
Sample: in vitro
Concentration: 200 nM
Notes: whole 15-mer aptamer, many near background
With: Cy3 exosite-II aptamer, 400 nM
Reading: higher = stronger binding
Strand: GGTTGGTGTGGTTGG
Modification | mean fluorescence intensity [a.u.]
2'F-ANA at 3 4 6 8 9 13 14 15 | 212
2'F-ANA at 5 8 9 11 14 15 | 42.9
2'F-ANA at 1 3 4 5 7 9 12 13 14 | 44.2
2'F-ANA at 2 3 4 5 7 8 11 12 13 14 | 50.8
2'F-ANA at 1 2 3 4 5 6 12 | 134
2'F-ANA at 1 4 7 8 11 12 15 | 224
2'F-ANA at 2 3 4 11 12 13 14 15 | 346
2'F-ANA at 3 4 6 9 10 11 12 | 270

Series 2
Structure (SMILES): CC(C)(O)c1cncc(-c2nc3ccc(F)cc3n2C2CC2)c1
Read-out: cell-free assay
Technique: competition with immobilised ligand
Concentration: 1 µM
target | remaining binding [%]
TNK1 (Homo sapiens, UniProt Q13470) | 100
EPHA5 (Homo sapiens, UniProt P54756) | 100
KIT (Homo sapiens, UniProt P10721, T670I/V559D) | 100
STK4 (Homo sapiens, UniProt Q13043) | 100
RIPK1 (Homo sapiens, UniProt Q13546) | 100
KIT (Homo sapiens, UniProt P10721) | 100
MAP2K2 (Homo sapiens, UniProt P36507) | 100
NEK10 (Homo sapiens, UniProt Q6ZWH5) | 100
SGK3 (Homo sapiens, UniProt Q96BR1) | 100
CDKL5 (Homo sapiens, UniProt O76039) | 100
SNRK (Homo sapiens, UniProt Q9NRH2) | 86
CSNK1A1 (Homo sapiens, UniProt P48729) | 84
MAP2K7 (Homo sapiens, UniProt O14733) | 100

Series 3
Target: RING finger protein unkempt homolog, zinc fingers 1-6, GST-SBP tag (UNK, Homo sapiens, UniProt Q9C0B0, residues 30-357)
Chain of UniProt Q9C0B0 (30-357, looked up): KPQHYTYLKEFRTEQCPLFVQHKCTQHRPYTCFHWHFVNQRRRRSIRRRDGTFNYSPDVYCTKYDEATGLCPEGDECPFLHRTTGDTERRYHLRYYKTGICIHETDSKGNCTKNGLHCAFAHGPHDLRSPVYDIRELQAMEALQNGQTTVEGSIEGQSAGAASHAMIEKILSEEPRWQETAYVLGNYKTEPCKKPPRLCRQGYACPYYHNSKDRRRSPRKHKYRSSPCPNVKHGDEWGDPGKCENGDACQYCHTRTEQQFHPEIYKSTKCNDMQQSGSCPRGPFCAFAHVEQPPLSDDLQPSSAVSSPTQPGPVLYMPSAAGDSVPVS
Technique: RNA Bind-n-Seq
Form: RNA
Sample: in vitro
Concentration: not given
Notes: RNA with constant flanks, ends assumed
Baseline: input RNA pool
Reading: higher = stronger binding
Strand | bound/input enrichment
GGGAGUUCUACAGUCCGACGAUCCAUUUCACAACUAGAUUGUAUAAGGAUAUUAGCUGUGAUGAGACUCACUGCAUUAUUUUUUUCCGUGAAUUUUAUGAAAUCCCCGUUCCAUUCAACAGGCACAUGUUUAAAAGAGCUUUGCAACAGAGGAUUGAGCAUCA | 0.336 ratio
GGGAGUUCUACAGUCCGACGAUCUAGAUACCCCAGCGAGUUCUGACUCUGAACUAUAACUUUUUUUUUUUUUAAUGCAAAGACACCCGUCUGAUAAUAUAUACUGUAUUCCCGGAGACAUUUGUGUUACUUACCCUUGGGGGCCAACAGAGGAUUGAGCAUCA | 2.71 ratio
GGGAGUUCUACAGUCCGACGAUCUCCGGGCAGAAUGAGGAGUCUCCUCGGAAACGAAAAAAGGCCACGGAAGCCAUAGACUCUCUCCGGAAAUCUAAACGUCUUCGGAAUAGAAAGUAAAUUGGAAUGUGGUUCUAGUUCCAGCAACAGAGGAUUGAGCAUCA | 0.58 ratio
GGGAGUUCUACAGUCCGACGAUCUGACAAAAUGUGAUGAGAGCUUCUUGAACCGGUAAACUAGUACAGGUCUGAGAAAGACAUAUCCGAAGAAUCAUUAUACUUCCUUGAAUUAUAUUUAUUUUCAUGUUUCUCUAAUGCAAACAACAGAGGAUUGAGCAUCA | 0.656 ratio
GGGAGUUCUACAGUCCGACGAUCUGUCUGGCCCAGGUGCUGCAGAAGGAUGUGGGAAAGCGGCUGCAGGUUGGCCAGGAACUCACCGACUAUUUCUCAGACAGACAGAAGUCUGCUGACCUUGAGCACGACCAGACCCUGUUGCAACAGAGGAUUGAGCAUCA | 0.149 ratio
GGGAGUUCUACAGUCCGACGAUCCUGGCAUCUGUGAAGAUUUCUAAAGUGAAAUACGUUAUCUGGUCAGCAGACAUGUCACAUGCCGCACUACUAGCCAAACACGCCAUUGUGAUCUGUAACCGCAAACUGGAUGCUUUAUGUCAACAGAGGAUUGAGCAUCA | 0.137 ratio
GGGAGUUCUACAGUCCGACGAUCGUCAACCGUGUUACUAUACUCUGUGACAAAUUUAGUGGCCAUCCCAAAGGGUUUGCAUAUACCGAGUUCUCGGACAAAGAGUCAGUGAGGACGUCCCUGGCCUUAGAUGAGUCCCUGUUCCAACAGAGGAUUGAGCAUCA | 0.711 ratio
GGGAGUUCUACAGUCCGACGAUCGGGGAGAAACCUUAUGAAUGCGUUCAGUGUGGGAAAUCGUAUAGUCAAAGCUCAAAUCUUUUCCGACAUCAGAGAAGACACAAUGCAGAAAAACUUCUGAAUGUUGUGAAAGUUUAAGAACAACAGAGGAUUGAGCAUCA | 0.444 ratio

Series 4
Target: Aurora kinase A (AURKA, Homo sapiens, UniProt O14965)
Chain of UniProt O14965 (whole entry, looked up): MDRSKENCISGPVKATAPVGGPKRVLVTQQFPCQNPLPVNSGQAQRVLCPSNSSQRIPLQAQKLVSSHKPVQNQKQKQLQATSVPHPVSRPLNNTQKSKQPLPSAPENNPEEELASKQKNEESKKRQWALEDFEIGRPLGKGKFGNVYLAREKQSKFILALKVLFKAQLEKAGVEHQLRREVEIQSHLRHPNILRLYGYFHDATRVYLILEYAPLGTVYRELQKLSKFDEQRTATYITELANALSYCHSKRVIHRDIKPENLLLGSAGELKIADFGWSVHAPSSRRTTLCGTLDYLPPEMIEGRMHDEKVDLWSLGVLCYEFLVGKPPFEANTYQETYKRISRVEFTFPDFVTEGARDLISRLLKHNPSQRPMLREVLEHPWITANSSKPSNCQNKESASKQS
Read-out: enzyme activity
Mode: inhibitor
Concentration: 0.5 µM
Baseline: control
SMILES | remaining activity [%]
O=c1c2ccccc2[nH]c(=S)n1CCN1CCC(=C(c2ccc(F)cc2)c2ccc(F)cc2)CC1 | 100
O=C(Nc1cccc(Nc2cc(Nc3cccc(C(F)(F)F)c3)ncn2)c1)C1CC1 | 107
CO[C@H]1C[C@@H]2CC[C@@H](C)[C@@](O)(O2)C(=O)C(=O)N2CCCC[C@H]2C(=O)O[C@H]([C@H](C)C[C@@H]2CC[C@@H](O)[C@H](OC)C2)CC(=O)[C@H](C)/C=C(\C)[C@@H](O)[C@@H](OC)C(=O)[C@H](C)C[C@H](C)/C=C/C=C/C=C/1C | 81.5
Nc1ccc2ncnc(NCCc3ccc(Oc4ccccc4)cc3)c2c1 | 105
CN(C)c1ccc(C=C2C(=O)Nc3ccccc32)cc1 | 104
